Measured values collected from several papers.
Every numbered part comes from another study and shows a few of its results, in no order. Positions count from the first letter of the parent shown.

Series 1
Target: CCNB3, cyclin fold, Cln2 fusion (human)
Technique: yeast growth competition, sequencing
Matrix: yeast
Setting: weak parent motif
Relative to: not given
Direction: higher = stronger binding
Starting sequence: RBL1 docking peptide (human); GSAKRRLFGEDPP; partner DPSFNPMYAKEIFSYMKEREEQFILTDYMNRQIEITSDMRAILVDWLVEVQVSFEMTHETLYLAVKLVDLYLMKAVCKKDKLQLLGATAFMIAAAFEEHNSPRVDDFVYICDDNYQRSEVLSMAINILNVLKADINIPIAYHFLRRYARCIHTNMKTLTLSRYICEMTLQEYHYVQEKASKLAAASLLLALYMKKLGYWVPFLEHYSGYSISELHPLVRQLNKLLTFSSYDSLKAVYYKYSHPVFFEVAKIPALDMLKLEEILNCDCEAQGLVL
Variant | normalised enrichment score
ISAKRRLFGEDPP [G1I] | 1.47
GSAKRRLSGEDPP [F8S] | 0.0115
GSAKRRLIGEDPP [F8I] | 0.139
GSAKRRLFGEDPR [P13R] | 0.396
GSAGRRLFGEDPP [K4G] | 0.339
GSAKRRLFGEDFP [P12F] | 0.812
GSANRRLFGEDPP [K4N] | 0.269
NSAKRRLFGEDPP [G1N] | 0.317
GSAKRRLFGEDQP [P12Q] | 0.236
GSARRRLFGEDPP [K4R] | 1.65
GSAKRRLFGEDPV [P13V] | 1.21
GSAKRRLFGEDPI [P13I] | 0.762
GSAKRELFGEDPP [R6E] | 0.333
GSAKRRLQGEDPP [F8Q] | -0.107
GSAKRRLFGFDPP [E10F] | 0.595
GSAKRRLFGEDIP [P12I] | 0.405
GSAKRRIFGEDPP [L7I] | 0.992
GSAKRRLFGEDVP [P12V] | 0.566
GSAKRRLFGEDPY [P13Y] | -0.0551
GSAKRRLFGEDPE [P13E] | -0.442
GSAKRRLFGEDAP [P12A] | 0.774
GSAKRRLNGEDPP [F8N] | -0.105
GSAKRRLFGWDPP [E10W] | 0.325
GSGKRRLFGEDPP [A3G] | -0.0161
GSAKRRPFGEDPP [L7P] | 0.28

Series 2
Target: RNA binding protein fox-1 homolog 2, RRM domain, GST-SBP tag (RBFOX2, Homo sapiens, UniProt O43251-10, residues 100-194)
Technique: RNA Bind-n-Seq
Form: RNA
Matrix: in vitro
Tested at: 365 nM
Setting: natural RNA segment, single round, ends assumed
Relative to: no-protein control
Direction: higher = stronger binding
Constant ends, left off below: GGGAGUUCUACAGUCCGACGAUC … UGGAAUUCUCGGGUGCCAA
Residues (chain): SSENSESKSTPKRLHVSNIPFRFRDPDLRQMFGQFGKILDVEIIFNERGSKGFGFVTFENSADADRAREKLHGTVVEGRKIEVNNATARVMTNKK
Sequence | RBNS enrichment (R)
CAUGGACAGUUAUGUAUAUCUACUUGUAUAGAGGGGGACAGUUUUCCACAUCGAUCCUUGCCCUCUUCAGGCAGUACUUCAGGGCCCUCACCAGGACCCCUUAUGUAGUG | 0.225
GUGCUGCCUGAGAUGGCACCUCCCUUUCAGCCAUUCUUCAAGAAUGGGCCACACACAGCUAGAAGUCCUCUCCCAGCUAGAAGUCCUGUCCCCACUCUCCUGGCCUGACA | 0.304
UACAUUAUCCGACUAAGGACUCUGGGCUGGCAGGGCCUUCUGCCGGGAAAGCUAGAAACACUAGGUUCUUCCUGUACAUACGUGUAUAUAUGUGAACAGUGAGAUGGCCG | 0.671
UCAAACAGAAUGAACUGCUAGAGCCCAACUCUUUUAAUACACCAAAGGAAUUAUGGGUGGGUAUUUUUUUAAUUGAACUCAUUUUUCGGUUGUCUGACCAUAACAUGAUU | 0.585
UUGUAUGUUUUGUUAUGUCGAGGUAUUUCUAAAGAGAAGAUUUUAUAUAAUUAUAAGAGGAAGUGUAGUGAAUUGUACAGCUGUUGUAAUAAUGACCUAUUUCUAUAAAA | 3.14
CCAUCAUCUCUGCCUUUGAGUGUGGGACUCCAGGCCAGCUCCUUUUCUGUGAAGCCCUUUGCCUGUAGAGCCAGCCUUGGUUGGACCUAUUGCCAGGAAUGUUUCAGCUG | 0.65
AGCUGAACUAGGUUGCUCUUUUUUGGCAGGGAGUGGGGAUGAGAUUUGACACCAAUAUGGGCAAAAUUAGAUAACCUUUUGGUUAAUAUAAAUGAUUUUGAUUUGGAGGC | 0.62
AAUGUGUGAAAAAGAUGCCAAUUAUUGUUACACAUCAAGCAAUCAAUAAAGAAAACUUCCGUAGUUAUUUAUUGAGUGCAACUGUCCUGUGCUUUACUGAGCCUGAGCUA | 0.249
UCUAGUUGCCAAUUGUCUUCAGAGUGUGAAAAUUUAAAUCCUUCUUGAAGUAUCUUUCGUGAGAGUAGUAUGGAAGUAAAACGUUCUCAUAUCAGGAGGAUGUCAUUUGU | 0.398
CACUGUUUUCUGGAAAUAAAGCCCUACUCUACAAAAAAAAUGAAGAUGGCUUGUGGGAAAAGAUCUCUUCUCCAGGAAGUUAAAAAACAUGAAUUACCAAAGAAAGCACC | 0.372
AGUUUUGUACUCACCAUAUAUGGAUCAUUCCUCAUGUAUAAUGUGCCCCAAAUGCAGCUUCAUUUUCCAGAUACCUUGACGCAGAAUAAAUUUUUUCAUCAUUUAGGUGC | 0.39
GUAGAUGUUAGGACCAACUGAGAAGGUCCAACACAAGUGUGGAUUUUUCCAUGUGUCAAAAAUCUCAUCACCCCACUUGCCUAAUUAGAGUAACCCAGCCCCUAAAUUUA | 0.455

Series 3
Target: Interferon regulatory factor 5, full length, phosphomimetic (IRF5, Homo sapiens, UniProt Q13568-2, residues 1-514, S451D/S453D/S456D/S462D)
Technique: protein-binding microarray
Form: double-stranded DNA, one strand shown
Matrix: in vitro
Tested at: 940 nM top
Setting: 60-bp whole probe
With: salmon DNA 0.4 mg/ml
Relative to: random background probes
Direction: higher = stronger binding
Constant ends, left off below: GCCTAGCAC … GTCTTGATTCGCTTGACGCTGCTG
Sequence | fitted relative affinity
AGAAACTTGTATTTGTCCCTGTGCTAG | 2.38 z-score
TAGACTCTGTGCTTTCCTCGTGTGCTA | -0.0681 z-score
TTAGGTCTCGTTCTCGGTTAGTGCTAG | 3.95 z-score
TTAGGTTTCGGGTATCGGGTAGTGCTA | 11.1 z-score
TTAGAACTGAGTACCGATTAGTGCTAG | -0.026 z-score
TTAGGTTTCGGATCCGGTTAGTGCTAG | 9.07 z-score
GGCGGACTGGGGACTGGGGACGTGCTA | -0.51 z-score
CTAGGTATCGGTATCGGTTAGTGCTAG | 9.56 z-score
TTCATTTTTTTTTTCATCATGTGCTAG | 1.91 z-score
TTAGAATTCAGTTTCGATTAGTGCTAG | 9.34 z-score
CTAGGTCTCCTTTTCCTTTAGTGCTAG | 0.677 z-score
TTAGGTTTCCTACTGCTATAGTGCTAG | 0.652 z-score
CTAACTTTCCAATTGTCCTTGTGCTAG | 1.28 z-score
CCTCCCCTTGCTTTCCAATTGTGCTAG | 0.209 z-score
GACGGTTTAGGTCTCGGGACGTGCTAG | 0.792 z-score
GACGATCTCAGTACCGAGACGTGCTAG | 0.118 z-score
TTAGGACTGCTTTTCCTTCAGTGCTAG | -0.397 z-score

Series 4
Target: Centromere-binding protein 1, full length, His-tagged (CBF1, Saccharomyces cerevisiae, UniProt P17106, residues 1-351)
Sequence of UniProt P17106 (whole entry, looked up): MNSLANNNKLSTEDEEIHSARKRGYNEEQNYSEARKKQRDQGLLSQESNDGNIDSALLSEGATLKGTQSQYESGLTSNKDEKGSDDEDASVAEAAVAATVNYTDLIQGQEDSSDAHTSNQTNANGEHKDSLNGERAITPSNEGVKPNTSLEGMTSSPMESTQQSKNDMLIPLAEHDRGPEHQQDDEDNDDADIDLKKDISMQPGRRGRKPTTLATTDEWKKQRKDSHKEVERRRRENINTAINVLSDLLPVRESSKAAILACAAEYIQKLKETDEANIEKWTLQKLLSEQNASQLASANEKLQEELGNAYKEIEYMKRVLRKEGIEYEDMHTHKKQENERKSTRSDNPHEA
Technique: competition protein-binding microarray
Form: double-stranded DNA, one strand shown
Matrix: in vitro
Tested at: 2 µM
Setting: whole 60-bp probe, lowest competitor level
With: Pho4 competitor, 0.05 µM
Direction: higher = stronger binding
Constant ends, left off below: … GTCTTGATTCGCTTGACGCTGCTG
Sequence | fluorescence intensity
ATAAAATTTCAGAATCACATGTTCGTAAAACAACCG | 1530 a.u.
AGACGGGGATCATCTTGCATGACAGTGCTAACATTT | 83.5 a.u.
CGTCCTAGTGATTGGTGTGTGGGTGCCATGAGGAAG | 96.9 a.u.
GCAATCGATAACAGGGACGTGCGATGCTAATGTAAT | 72.3 a.u.
GAAAGCCTGGTAGGACACGTGATGGCTTGTTCGCCA | 3870 a.u.
CTCCCTGGGCGGCTGCACGTGCTGGCTGGCTCCTCC | 956 a.u.
ACTTGTCCAGAAAGGAACGTGACTCGCAATTGGAAG | 1210 a.u.
TGCTTTTCCATTGGTTACGTGCTAAGTTGTTAGATA | 78.9 a.u.
CGGGGTTAAGTTTGTCACGTGGGTGGCTTGCAGCAG | 3120 a.u.
GTTACCTAATAACTTCATGTGATATGCTCCCCCTTC | 287 a.u.
CGTTTCCTGGGAAATCACGTGCTCTGTCATTGAATT | 8980 a.u.
TCATTTTAGGCAGGGCCGGTACAGACCGCACCAATC | 53.3 a.u.
CGGGGTTAAGTTTTTCACGTGTGCTGCTTGCAGCAG | 517 a.u.
CATACCCAACCTTGGCGGGTGGGTGAAGATATTTGT | 72 a.u.
CGTTGGTCTTTTTGGTGAAACGGAGTACTGGCTTGC | 62.2 a.u.
ACAAACAACTCACTCAACGTGTCCAAAACTTCGTAG | 99.3 a.u.
AAATCATTGATTTCCAATCTTTAAAAAATCCATCCA | 89.2 a.u.
CATACCCAACCTTGGGTTGTGGGTGAAGATATTTGT | 65.9 a.u.
TGCAAGATCAAGTGCCGCGTGTCCTTATTGTTGTCC | 101 a.u.
CTTTTGGATTCCCATCACGTCATGAAAGATTCTTCT | 92.8 a.u.
GTCCCACACTACTGGCACGTTTTCTTGATTTTTGTC | 194 a.u.
CTTCTGTAAATTTGAACCGTGGGTGGACGCGCCCCG | 66.7 a.u.
CTTCTGTAAATTTGTCACCCCACTTGACGCGCCCCG | 92.9 a.u.

For quick reference, copied from above (series 4):
Sequence | fluorescence intensity
CATACCCAACCTTGGCGGGTGGGTGAAGATATTTGT | 72 a.u.
CGGGGTTAAGTTTTTCACGTGTGCTGCTTGCAGCAG | 517 a.u.
TCATTTTAGGCAGGGCCGGTACAGACCGCACCAATC | 53.3 a.u.
TGCAAGATCAAGTGCCGCGTGTCCTTATTGTTGTCC | 101 a.u.
ATAAAATTTCAGAATCACATGTTCGTAAAACAACCG | 1530 a.u.
GTCCCACACTACTGGCACGTTTTCTTGATTTTTGTC | 194 a.u.
AAATCATTGATTTCCAATCTTTAAAAAATCCATCCA | 89.2 a.u.
ACTTGTCCAGAAAGGAACGTGACTCGCAATTGGAAG | 1210 a.u.
CATACCCAACCTTGGGTTGTGGGTGAAGATATTTGT | 65.9 a.u.
AGACGGGGATCATCTTGCATGACAGTGCTAACATTT | 83.5 a.u.
CTTCTGTAAATTTGAACCGTGGGTGGACGCGCCCCG | 66.7 a.u.
